# Results from different studies.
# Every numbered part comes from another study and shows a few of its results, in no order. Values joined by “and” are separate records of one study, mostly repeats; a detail may differ.
# UniProt O00238, sequence (whole entry, looked up): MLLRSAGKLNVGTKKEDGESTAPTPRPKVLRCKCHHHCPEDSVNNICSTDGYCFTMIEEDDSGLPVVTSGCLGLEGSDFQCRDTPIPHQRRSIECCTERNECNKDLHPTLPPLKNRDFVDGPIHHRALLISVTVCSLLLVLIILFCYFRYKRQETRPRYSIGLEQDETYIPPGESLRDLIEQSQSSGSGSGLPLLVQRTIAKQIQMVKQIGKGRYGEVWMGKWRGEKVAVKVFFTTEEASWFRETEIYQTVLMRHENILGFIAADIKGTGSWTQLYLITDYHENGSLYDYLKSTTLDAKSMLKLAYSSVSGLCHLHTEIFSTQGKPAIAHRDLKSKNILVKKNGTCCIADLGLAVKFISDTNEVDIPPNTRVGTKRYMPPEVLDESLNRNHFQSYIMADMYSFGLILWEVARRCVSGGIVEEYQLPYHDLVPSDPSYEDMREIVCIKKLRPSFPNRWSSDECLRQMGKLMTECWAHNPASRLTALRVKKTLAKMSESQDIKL
# UniProt P42336, sequence (whole entry, unmodified, looked up): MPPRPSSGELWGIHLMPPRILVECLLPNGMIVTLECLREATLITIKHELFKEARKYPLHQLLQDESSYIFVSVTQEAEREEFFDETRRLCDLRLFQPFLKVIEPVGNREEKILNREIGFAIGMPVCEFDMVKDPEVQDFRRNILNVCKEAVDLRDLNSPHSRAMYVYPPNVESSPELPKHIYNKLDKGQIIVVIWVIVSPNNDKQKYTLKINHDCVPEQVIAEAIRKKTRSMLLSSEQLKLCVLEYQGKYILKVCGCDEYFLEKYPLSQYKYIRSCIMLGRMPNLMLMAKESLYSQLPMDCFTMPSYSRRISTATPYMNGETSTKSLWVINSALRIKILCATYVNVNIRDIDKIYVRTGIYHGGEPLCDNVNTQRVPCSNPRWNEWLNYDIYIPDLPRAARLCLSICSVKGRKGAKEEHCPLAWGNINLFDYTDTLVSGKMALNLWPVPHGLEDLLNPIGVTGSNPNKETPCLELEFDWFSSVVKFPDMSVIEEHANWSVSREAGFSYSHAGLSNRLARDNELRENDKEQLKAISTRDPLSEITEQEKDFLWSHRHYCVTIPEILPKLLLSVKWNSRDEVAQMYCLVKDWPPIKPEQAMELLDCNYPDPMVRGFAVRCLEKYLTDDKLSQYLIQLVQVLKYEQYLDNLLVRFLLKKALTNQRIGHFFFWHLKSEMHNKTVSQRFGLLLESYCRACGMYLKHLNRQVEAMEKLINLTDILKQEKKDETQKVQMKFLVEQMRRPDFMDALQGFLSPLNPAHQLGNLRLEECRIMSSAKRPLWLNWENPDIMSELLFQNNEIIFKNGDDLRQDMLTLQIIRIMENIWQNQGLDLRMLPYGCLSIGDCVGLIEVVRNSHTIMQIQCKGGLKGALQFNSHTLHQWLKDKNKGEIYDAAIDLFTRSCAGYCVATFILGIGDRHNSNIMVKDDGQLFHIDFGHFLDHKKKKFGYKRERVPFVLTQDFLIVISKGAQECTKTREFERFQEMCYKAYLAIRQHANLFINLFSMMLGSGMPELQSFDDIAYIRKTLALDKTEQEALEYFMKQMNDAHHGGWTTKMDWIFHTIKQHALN
# UniProt P33981, sequence (whole entry, looked up): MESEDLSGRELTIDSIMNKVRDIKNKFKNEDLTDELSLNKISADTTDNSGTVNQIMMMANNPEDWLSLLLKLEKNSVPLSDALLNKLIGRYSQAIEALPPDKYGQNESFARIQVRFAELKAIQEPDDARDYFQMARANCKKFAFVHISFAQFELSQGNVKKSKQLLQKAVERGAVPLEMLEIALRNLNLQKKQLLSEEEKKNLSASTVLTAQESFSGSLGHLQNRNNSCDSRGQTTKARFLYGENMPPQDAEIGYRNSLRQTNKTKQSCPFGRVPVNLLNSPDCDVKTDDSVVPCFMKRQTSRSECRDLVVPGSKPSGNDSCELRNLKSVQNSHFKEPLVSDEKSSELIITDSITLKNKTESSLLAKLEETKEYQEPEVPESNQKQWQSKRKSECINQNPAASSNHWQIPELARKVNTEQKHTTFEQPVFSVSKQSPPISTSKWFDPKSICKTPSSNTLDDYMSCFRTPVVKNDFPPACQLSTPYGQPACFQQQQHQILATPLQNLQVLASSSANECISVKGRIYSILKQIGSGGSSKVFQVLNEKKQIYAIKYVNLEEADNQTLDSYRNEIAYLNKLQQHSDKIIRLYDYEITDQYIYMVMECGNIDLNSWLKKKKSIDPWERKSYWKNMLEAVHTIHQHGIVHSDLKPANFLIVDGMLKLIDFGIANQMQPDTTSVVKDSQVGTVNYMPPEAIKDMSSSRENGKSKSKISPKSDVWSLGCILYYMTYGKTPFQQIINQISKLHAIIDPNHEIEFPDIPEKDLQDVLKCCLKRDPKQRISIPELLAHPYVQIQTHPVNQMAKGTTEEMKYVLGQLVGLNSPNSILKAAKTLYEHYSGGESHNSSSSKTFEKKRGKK

# Series 1 — cell line: mouse MPNST tumor cells; technique: high-content immunofluorescence imaging; item: nuclear SOX9; concentration: 10 µM; time: 12 h; notes: mean of 2 replicates; baseline: DMSO control; reading: higher = more nuclear SOX9
Compound,nuclear SOX9 intensity
Oc1ccc(-c2c(-c3ccccc3)nn3c(C(F)(F)F)cc(C(F)(F)F)nc23)cc1,103 % of DMSO
COc1cnc(NS(=O)(=O)c2ccc(N)cc2)nc1,96.8 % of DMSO
CCCC(=O)Nc1ncnc2c1ncn2[C@@H]1O[C@@H]2COP(=O)(O)O[C@H]2[C@H]1OC(=O)CCC,115 % of DMSO and 96 % of DMSO
COc1cc(NS(=O)(=O)c2ccc(N)cc2)nc(OC)n1,107 % of DMSO

# Series 2 — technique: Incucyte 3D growth; concentration: 30 µM; reading: higher = more growth
# Compound: CC(C)(C(=O)O)[C@H](NC(=O)Cc1cccc(I)c1)c1ccc2oc(=O)[nH]c2c1
cell line,conditions,spheroid area
A375,156 h,9.11e+07 a.u. and 9.66e+07 a.u. and 9.18e+07 a.u. and 9.34e+07 a.u. and 8.08e+07 a.u. and 1.12e+08 a.u.
A375,186 h,1.12e+08 a.u. and 1.31e+08 a.u. and 1.09e+08 a.u. and 9.78e+07 a.u. and 1.15e+08 a.u.
IPC-298,246 h,2.71e+07 a.u. and 4.56e+07 a.u. and 3.28e+07 a.u. and 2.73e+07 a.u. and 3.08e+07 a.u. and 3.71e+07 a.u.
NCI-H358,6 h,3.04e+06 a.u. and 3.58e+06 a.u. and 3.5e+06 a.u. and 3.78e+06 a.u. and 3.22e+06 a.u. and 3.53e+06 a.u.

# Series 3 — cell line: HaCaT; concentration: 100 µM; time: 36 h
SMILES,viability [%]
COc1ccc2cc1Oc1ccc(cc1)C[C@H]1c3cc(c(OC)cc3CCN1C)Oc1c(OC)c(OC)cc3c1[C@H](C2)N(C)CC3,6.16
CC1(C)[C@@H](OC(=O)CCC(=O)O)CC[C@]2(C)[C@H]3C(=O)C=C4[C@@H]5C[C@@](C)(C(=O)O)CC[C@]5(C)CC[C@@]4(C)[C@]3(C)CC[C@@H]12,17.6
CCOc1ccc2nc(SCCN3CCOCC3)[nH]c2c1,81.7

# Series 4 — effect on: cell-free assay; technique: competition with immobilised ligand; concentration: 1 µM
# SMILES: O=C(Nc1cccnn1)N1CC(C/C=C/c2cncc(Oc3ccc(C(F)(F)F)cn3)n2)C1
target,remaining binding
"TTK (Homo sapiens, UniProt P33981)",100%
"BMPR1B (Homo sapiens, UniProt O00238)",91%
"PIK3CA (Homo sapiens, UniProt P42336, Q546K)",92%

# Series 5 — effect on: enzyme activity; action: inhibitor; concentration: 0.5 µM; baseline: control
# Target: Serine/threonine-protein kinase 4 (STK4, Homo sapiens, UniProt Q13043)
# Construct (Q13043 1-487): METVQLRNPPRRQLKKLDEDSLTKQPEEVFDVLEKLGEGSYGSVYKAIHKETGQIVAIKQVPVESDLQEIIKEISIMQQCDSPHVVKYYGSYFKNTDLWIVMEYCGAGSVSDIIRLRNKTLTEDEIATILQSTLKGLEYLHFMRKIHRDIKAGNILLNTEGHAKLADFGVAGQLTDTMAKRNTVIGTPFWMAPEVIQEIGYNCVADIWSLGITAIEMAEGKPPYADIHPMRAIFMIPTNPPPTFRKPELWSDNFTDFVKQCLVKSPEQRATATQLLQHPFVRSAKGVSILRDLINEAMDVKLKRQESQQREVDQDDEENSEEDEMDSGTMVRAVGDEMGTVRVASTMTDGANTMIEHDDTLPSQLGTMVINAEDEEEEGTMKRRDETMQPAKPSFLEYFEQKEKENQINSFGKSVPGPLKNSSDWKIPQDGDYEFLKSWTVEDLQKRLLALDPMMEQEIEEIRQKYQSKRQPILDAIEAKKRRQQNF
SMILES,remaining activity [%]
Nc1ccc2ncnc(NCCc3ccc(Oc4ccccc4)cc3)c2c1,95.8
Cn1sc(=O)n(Cc2ccccc2)c1=O,107
Nc1[nH]nc2nc3ccccc3nc12,94.5
N#CC(C#N)=C(N)/C(C#N)=C/c1ccc(O)cc1,99.1
NCCNc1ncc(C(N)=O)c(Nc2cccc(C(F)(F)F)c2)n1,65.2
COc1ccc(OC)c2c(=S)c3ccccc3[nH]c12,96.8
COc1cc2nccc(Oc3ccc(NC(=S)NC(=O)c4ccccc4C)cc3)c2cc1OC,95.6
O=C1NC(=O)C(c2cn(CCCn3ccnc3)c3ccccc23)=C1Nc1ccccc1,40.9
COc1cc2ncnc(Nc3ccc(Oc4ccccc4)cc3)c2cc1OC,107
Cn1c2ccccc2c2c3c(c4c5ccccc5n(CCC#N)c4c21)CNC3=O,3.73
CC(C)[C@H](CO)Nc1nc(Nc2cc(N)cc(Cl)c2)c2ncn(C(C)C)c2n1,63.6
O=S(=O)(c1cccc2cnccc12)N1CCCNCC1,94.8
O=C(O)c1ccc2c3c1cccc3c(=O)n1c3ccccc3nc21,93.3
CNC(=O)c1cc(Oc2ccc(NC(=O)Nc3ccc(Cl)c(C(F)(F)F)c3)cc2)ccn1,101
O=c1c2ccccc2[nH]c(=S)n1CCN1CCC(=C(c2ccc(F)cc2)c2ccc(F)cc2)CC1,103
O=C(CCCc1ccc(-c2ccccc2F)cc1)Nc1ccc(O)cc1,95

# Series 6 — action: inhibitor; concentration: 10 µM; baseline: control
# Target: Diamine acetyltransferase 1 (Homo sapiens, UniProt P21673)
# Residues (P21673 1-171): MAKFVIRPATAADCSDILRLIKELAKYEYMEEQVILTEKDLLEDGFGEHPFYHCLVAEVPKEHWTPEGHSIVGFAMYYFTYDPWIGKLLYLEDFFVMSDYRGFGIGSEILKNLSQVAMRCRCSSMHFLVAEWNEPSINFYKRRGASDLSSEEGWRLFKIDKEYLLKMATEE
Compound,remaining activity [%]
O=C1c2ccccc2C(=O)c2c(O)ccc(O)c21,88.4
CC(C)=CCC/C(C)=C/CC/C(C)=C/CC/C(C)=C/CO,104
O=c1[nH]c(=O)c2ncn([C@@H]3O[C@H](CO)[C@@H](O)[C@H]3O)c2[nH]1,94.5

# For quick reference, copied from above (series 5):
SMILES,remaining activity [%]
O=C(O)c1ccc2c3c1cccc3c(=O)n1c3ccccc3nc21,93.3
N#CC(C#N)=C(N)/C(C#N)=C/c1ccc(O)cc1,99.1
COc1cc2nccc(Oc3ccc(NC(=S)NC(=O)c4ccccc4C)cc3)c2cc1OC,95.6
Nc1[nH]nc2nc3ccccc3nc12,94.5
